Measurements collected from several papers.
A part holds a random share of what one study measured.

Study 1
Target: Hepatocyte nuclear factor 3-alpha (Foxa1, Mus musculus, UniProt P35582, residues 1-468, full length assumed)
Method: EMSA with sequencing
Form: double-stranded DNA, one strand shown
Medium: in vitro
Concentration: 10 and 20 nM
Notes: whole designed probe, mean of two concentrations, ends assumed
Relative to: negative control set to 0
Direction: higher = stronger binding
Measurement: normalised bound fraction
Constant ends, left off below: GTGAGCGGTGCCCATTGATGGGGAAC … TTTCACTGGGATCGTGGGGAC
Residues (chain): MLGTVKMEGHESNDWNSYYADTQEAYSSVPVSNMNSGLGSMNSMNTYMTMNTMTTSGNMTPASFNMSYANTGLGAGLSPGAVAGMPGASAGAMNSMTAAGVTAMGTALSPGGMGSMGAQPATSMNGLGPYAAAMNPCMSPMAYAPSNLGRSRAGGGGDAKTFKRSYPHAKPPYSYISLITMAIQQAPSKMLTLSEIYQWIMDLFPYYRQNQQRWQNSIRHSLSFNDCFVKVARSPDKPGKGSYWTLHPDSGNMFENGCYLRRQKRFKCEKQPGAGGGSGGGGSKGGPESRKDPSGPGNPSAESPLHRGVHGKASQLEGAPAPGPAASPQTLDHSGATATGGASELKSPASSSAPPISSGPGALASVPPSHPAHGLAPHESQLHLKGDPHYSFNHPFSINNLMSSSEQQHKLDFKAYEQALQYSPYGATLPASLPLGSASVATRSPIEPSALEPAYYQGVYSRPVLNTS
GGCTGCTTCTCCCTTTTGGCTGTTGTGCATATTGCTGCTATGAACATGGGTGTGCAAATACCTCTTTGAGTCACTGCTTTCACTTCTTTTTAGAAATTACTCAGCAGTGGAATTGCTGAGTCATGTGATAATTCTGTGTTTAATTTTTTTTGAGGAAACTCCATACTGTTCTCATGGTGGCTGCACCATTTAA: 0.0773 ratio
ATCTTCCCCCTCTTCCTTGCCCCACCAGCTCACCTTCCCGGGTTATTTGCACAAAGGAAAATAAATAAAGCCGGCATTCGTTAACCCTCTTCACGCGCATACTGCTGTTTGCTCTGGATGAATCATGGTCCTTTGGCGACGCCAGGCTCCGGGAGAGCAAAGCACCGTGTCAGGGCCATGATCCGGGGTGGCC: 0.368 ratio
CTCATTCCTTGCTTCCGCCAATAATCTGACTAGTAAAGAAGTCACTGCATGCCACAAATTGTCAGTGCTGACTTCCTCAACAAGGAAGTTATTTATTTACTTATTTAATATATGAGTGTCACAGATGCAAATTCCATCTTGAGAATACCAACTCCTGATGCCAACTGATTGTCAGTCATGGCTACAACAGGAG: 0.473 ratio
AGGCCTTATCACTGTGCAAACACTTCCTCTTTCCCCAGTGCTGGTTCTCACACAATTGGTAATCAGTGTAAACTTCCTCTGACAATTTACTGAGCAAACATTTACCATACAACTGCCCTATGTAGGGCTCTGTGCTAAGGCCCATGGGGAACCCAAGCCTGGTCTCCACCTTGGGGCATCTCGAGTCTGGTAG: 0.415 ratio
TCGGCCAGCCTGGCTTCTGCGCCCCGCCAGGAGGTCGCGGAGCGGAGCGCGGCCAGGAAGTGAGCTGAGAGTGACAGCATGACTCATTCTGTTTGTTTATTCATGTCACATTCTCTCCACACACTGGCTCTTCTTTCTTTCGGGAGGAGGGGAGAAAGGAGCGGGAGGGCGGGCGGGCAGGGGAGAGGCAGGC: 0.404 ratio
TCTAATCCATACCAAGGATTCCCATGGGGAAACTGTTATCTCTCAACTCAGTGAGGGCTATTGACAAAGACCAGTGCTCTTTCTTCTCTGTAGGTAATCTGTGACTCATGCAAGCCTGAGGGAGAAAATACAGTATATCTAAGAGTTAAGACCTCCCAGCTTCACATTCTGTTATAGCAGCTGCTTCATGCCA: -0.019 ratio
GGGGCATTAGCAACAGACTTTCATAGCTAAACCCTACTAGTTACAGAGATTTATTTATTAGTCCACTGGGCTAGAAAAAAAGCCATTCATATGTAATCTGGGAGATAATAAAGGCTATCACATTTATGTGTATACTCAAATGGAGCAATTTTAATTAACGTCTAAGTACCTTTACATATATTATAATTATTGT: 0.0591 ratio
TATTTAATCTAGGCTACTGTGAATAGGAGAAAAATAGTTGCTAAAAGATGGCAGAGTTCACTCAATCCAATGAAATTTTAAAACATCTCAAAGTAATCTAAGCCAGAGAGTTCATCAGCTAATGCTGCGTCATAAGGTTATCTGCATATTAGGTGATCCCAGTGGCTACAGAACTGACTTTCAGAAACACTAG: -0.0135 ratio

Study 2
Target: Krueppel-like factor 3, full length (KLF3, Homo sapiens, UniProt P57682, residues 1-345)
UniProt P57682, sequence (whole entry, looked up): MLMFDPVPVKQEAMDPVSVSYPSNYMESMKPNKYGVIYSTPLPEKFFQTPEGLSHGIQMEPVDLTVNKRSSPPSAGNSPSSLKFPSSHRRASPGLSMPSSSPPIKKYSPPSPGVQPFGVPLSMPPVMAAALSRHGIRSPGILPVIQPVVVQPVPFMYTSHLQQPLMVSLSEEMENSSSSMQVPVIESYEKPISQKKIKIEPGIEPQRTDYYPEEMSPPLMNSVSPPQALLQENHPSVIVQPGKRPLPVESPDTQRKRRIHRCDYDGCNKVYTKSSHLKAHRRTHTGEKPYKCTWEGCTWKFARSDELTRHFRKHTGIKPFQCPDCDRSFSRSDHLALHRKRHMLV
Method: protein-binding microarray
Form: hairpin DNA
Medium: in vitro
Concentration: not given
Notes: whole hairpin DNA, median over replicate spots
Relative to: not given
Direction: higher = stronger binding
Measurement: median fluorescence
GAGGCCGACCGCGGCCAGCCTCCTGGCTGGCCGCGGTCGGCCTCACACTC: 8310 a.u.
GAGGCCGACCACTCCCAGCCTCCTGGCTGGGAGTGGTCGGCCTCACACTC: 8180 a.u.
GAGGCCCGCCACGCCCAGCCTCCTGGCTGGGCGTGGCGGGCCTCACACTC (5mC at 7 37): 9000 a.u.
GAGGCCGACCGCGCCCAGCCTCCTGGCTGGGCGCGGTCGGCCTCACACTC (5mC at 32 34): 8640 a.u.
GAGGCCGACCACGCCGAGCCTCCTGGCTCGGCGTGGTCGGCCTCACACTC (5mC at 29): 9460 a.u.
GAGGCCAACCACGCCCAGCCTCCTGGCTGGGCGTGGTTGGCCTCACACTC: 9280 a.u.
GAGGCCGACTACGCCCAGCCTCCTGGCTGGGCGTAGTCGGCCTCACACTC: 7690 a.u.
GAGGCCGACCACGCCGAGCCTCCTGGCTCGGCGTGGTCGGCCTCACACTC (5mC at 15 29): 9340 a.u.

Further values, each from its own experiment
Histone H2B type 1-C/E/F/G/I (Homo sapiens, UniProt P62807) — interaction screen (H2AC14 (Homo sapiens, UniProt Q99878); cross-linking MS; hits only): cross-linked
Clc1ccc2c(c1)C(N1CCNCC1)=Nc1ccccc1O2 — inhibition (Sarcocystis neurona; parasite growth; 10 µM, 96 h, first screen): -1.2%
